Measurements of several laboratories.
Values joined by “and” are separate records of one study, mostly repeats; a detail may differ. ± marks the error that the study gave.
ABL1 T315I: Tyrosine-protein kinase ABL1 (ABL1, Homo sapiens, UniProt P00519, T315I)
SET: Protein SET (SET, Homo sapiens, UniProt Q01105)
Aryl hydrocarbon receptor: Aryl hydrocarbon receptor (Danio rerio, UniProt Q9YGV3)
T1: DNA aptamer C13T; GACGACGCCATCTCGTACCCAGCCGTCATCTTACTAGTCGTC
T2: riboswitch RNA yjdF aptamer (Bacillus subtilis); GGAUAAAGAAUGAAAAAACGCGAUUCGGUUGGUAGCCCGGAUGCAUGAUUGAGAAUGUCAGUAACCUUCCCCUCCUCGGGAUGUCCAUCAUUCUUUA

The remaining binding of `c1cnn2ncc(-c3ccnc(N4CCC45COC5)n3)c2c1` is reported as 74% (ABL1 T315I; KINOMEscan; 1 µM; reference: control).
With `CNC[C@H](O)c1cccc(O)c1` the Emax was ~10% (ADRA1D (Homo sapiens, UniProt P25100); calcium mobilization, agonist; COS-7, transiently expressing receptor; reference: 3 µM ionomycin).
`CCCCCCCCCCCCC/C=C/[C@@H](O)[C@H](CO)NC(=O)CCCCCCCCCCCCCCCCCCCCCCC`: “bound endogenous lipid” 2.8 (SET; lipid binding, GFP pull-down LC-MS/MS; A549 overexpressing GFP-tagged protein; unit not given; reference: vector-transfected cells).
`COc1cc(Nc2ncc3c(n2)-c2ccc(Cl)cc2C(c2c(F)cccc2OC)=NC3)ccc1C(=O)O` gave a remaining activity of 99% (HIPK4; kinase activity; 1 µM).
For `COc1cc(-c2cncc3c2CN(C)Cc2cc(N4CCNCC4)ccc2-3)cc(OC)c1OC`, the remaining activity was 113% (NUAK2 (Homo sapiens, UniProt Q9H093); kinase activity; 1 µM, human enzyme, together with: ATP 10 µM; reference: DMSO control).
`NC(=O)C1=CN([C@@H]2O[C@H](COP(=O)(O)OP(=O)(O)OC[C@H]3O[C@@H](n4cnc5c(N)ncnc54)[C@H](O)[C@@H]3O)[C@@H](O)[C@H]2O)C=CC1` gave a Km of 36.6 ± 17.6 µM (FSP1 F354A mutant; substrate; together with: 100 µM co-substrate).
`CCCCCCCCCCCCC/C=C/[C@@H](O)[C@H](CO)NC(=O)CCCCCCCCCCCCC` — result for “bound endogenous lipid”: 0.7 (SET; lipid binding, GFP pull-down LC-MS/MS; A549 overexpressing GFP-tagged protein; ER-targeted construct, unit not given; reference: vector-transfected cells).
For `Nc1ccc2ccc3cccc4ccc1c2c34`, the fold change was 1.05 (Aryl hydrocarbon receptor; reporter gene, agonist, luciferase reporter; ZF-4; 1.524 µM; reference: vehicle control).
`OC[C@H]1OC(O)[C@H](O)[C@@H](O)[C@@H]1O` (stereo partly shown) has a kcat of 46 ± 15 s⁻¹ (Hexokinase-3 (HK3, Homo sapiens, UniProt P52790); enzyme activity, coupled G6PDH; substrate inhibition fit, together with: ATP 20 mM).
For `COc1cccc(C(=O)C#Cc2ccc(F)c(F)c2)c1`, the binding was 55% (rhlR (Pseudomonas aeruginosa, UniProt P54292); receptor binding; concentration not given, 1.5 h, together with: BHL at 1:1 ratio; reference: control).
The reaction rate of `Nc1nc2c(ncn2[C@@H]2O[C@H](COP(=O)(O)O)[C@@H](O)[C@H]2O)c(=O)[nH]1` is reported as -1.36 s⁻¹ and 1.61 s⁻¹ and -1.54 s⁻¹ (GUK1 (Homo sapiens, UniProt Q16774, Y53A); enzyme activity, NADH-coupled; 15.62 µM).
`CO[C@H]1O[C@H](COS(=O)(=O)O)[C@@H](O[C@@H]2O[C@@H](C(=O)O)[C@@H](O[C@H]3O[C@H](COS(=O)(=O)O)[C@@H](O[C@@H]4O[C@H](C(=O)O)[C@@H](O[C@H]5O[C@H](COS(=O)(=O)O)[C@@H](O)[C@H](O)[C@H]5NS(=O)(=O)O)[C@H](O)[C@H]4O)[C@H](OS(=O)(=O)O)[C@H]3NS(=O)(=O)O)[C@H](O)[C@H]2OS(=O)(=O)O)[C@H](O)[C@H]1NS(=O)(=O)O`: “salt-independent binding energy share” 52% (Beta-2-glycoprotein 1, domain V (APOH, Homo sapiens, UniProt P02749, V266L); isothermal titration calorimetry; together with: 50 mM NaCl; reference: total free energy).
Under activity, `N#Cc1ccc(C[C@@H](Nc2nnc(-c3ccc(F)cc3)s2)C(=O)N2CCc3ccccc32)cc1` is recorded as “inactive” (FPR2 (Homo sapiens, UniProt P25090); cell-based; concentration not given).
`Nc1ccc(C(=O)O)cc1` has a current density of 28.8 pA/pF and 8.29 pA/pF and 31.7 pA/pF and 25 pA/pF and 26.8 pA/pF and 22.8 pA/pF and 5.84 pA/pF (BEST1, with wild-type BEST1 (Homo sapiens, UniProt O76090, A243T); whole-cell patch clamp; HEK293 co-expressing WT and A243T mutant; concentration not given, membrane potential 80 mV).
With `O=S(=O)(O)C1CCNCC1` the agonist score was 0.96 (GABA-A receptor; alpha-1/beta-2/gamma-2 (Rattus norvegicus, UniProt P18508+P62813+P63138); membrane potential, agonist, QP-DHM fluorescence; HEK293 expressing GABAA; 10 µM; reference: 10 µM GABA, direction not given).
`N[C@@H](CO)C(=O)O` gave an association constant of 1.55 ± 0.31 M⁻¹ (Lysozyme C (LYZ, Gallus gallus, UniProt P00698); binding, sedimentation equilibrium AUC).
`c1ccc2c(c1)-c1cccc3c1c-2cc1ccccc13` gave a fold change of 8.34 (Aryl hydrocarbon receptor; reporter gene, agonist, luciferase reporter; ZF-4; 3333.33 µM; reference: vehicle control).
The degradation of `O=C1CCC(N2C(=O)c3cccc(NCC(=O)OCCCCc4cn(CCCCCCN5CCc6c(c7ccccc7n6Cc6ccc(C(=O)NO)cc6)C5)nn4)c3C2=O)C(=O)N1` (stereo not shown) is reported as 68% (HDAC6 (Homo sapiens, UniProt Q9UBN7); degrader, western blot; MM1.S; 1 µM, 24 h).
`CCCCCCCCCCCCC/C=C/[C@@H](O)[C@H](CO)NC(=O)CCCCCCCCCCCCCCCCC`: “lipid fraction bound” 65.4% (SET; lipid binding, GFP pull-down LC-MS/MS; A549 overexpressing GFP-tagged protein; reference: eluate plus flow-through).
Under “thermal stability ratio”, `O=C(COP(=O)(O)O)[C@@H](O)[C@H](O)[C@H](O)COP(=O)(O)O` is recorded as 1.94 and 1.78 and 2.11 (Phosphoglycerate mutase 1 (Homo sapiens, UniProt P18669); thermal proteome profiling, measured: PGAM1; HepG2 cell lysate; concentration not given, 57 over 37 °C; reference: compound over control).
`Cc1ccc(-c2ccnc(Nc3ccc(C(=O)N4CCC(N5CCCC5)CC4)cc3)n2)s1` gave a ligand efficiency of 0.29 (Protein kinase 6 (Plasmodium falciparum, UniProt Q8IDW1); binding, KinaseSeeker split luciferase).
For `O=C1C=CC(=O)c2c1ccc1ccccc21`, the fold change was 3 (Aryl hydrocarbon receptor; reporter gene, agonist, luciferase reporter; ZF-4; 4.572 µM; reference: vehicle control).
With `CC1(C)S[C@@H]2[C@H](NC(=O)[C@H](N)c3ccccc3)C(=O)N2[C@H]1C(=O)O` the Kd was 196 µM (T1, DNA aptamer C13T; competition, fluorescence displacement; apparent, together with: ThT 10 µM).
With `Nc1ncnc2c1ncn2[C@@H]1O[C@H](COP(=O)(O)CP(=O)(O)OP(=O)(O)O)[C@@H](O)[C@H]1O` the calcium influx was 3.54% and 10.4% and 8.81% (P2X purinoceptor 1 (P2RX1, Homo sapiens, UniProt P51575, K136W); calcium influx; 31.6 nM; reference: ionomycin response).
Under “log2 fold change”, `CCN1CCC[C@H]1CNC(=O)c1c(O)c(Cl)cc(Cl)c1OC` is recorded as -0.08 (GPR35 (Homo sapiens, UniProt Q9HC97); β-arrestin recruitment, TANGO luminescence; concentration not given; reference: basal luminescence).
With `CC[C@@H]1[C@H](F)C(=O)N[C@@H]1COc1nccc2cc(C(N)=O)c(OC)cc12` the inhibition was 22.2% (STK16 (Homo sapiens, UniProt O75716); ATP-site probe binding, ActivX profiling; THP-1 cell lysate; 0.2 mM, Lys1 site).
`Cn1c2c(c3ccc(Cl)c(Cl)c31)C(C#N)C1(CCOCC1)NC2=O` (stereo not shown) gave a ΔTm of 0.2 °C (RPS6KA2 (Homo sapiens, UniProt Q15349); thermal shift; 10 µM, 2 µM protein; higher = stronger binding).
For `CN(C)c1nccc(-c2cnn3ncccc23)n1`, the remaining binding was 63% (ABL1 T315I; KINOMEscan; 1 µM; reference: control).
`CC1CCCN(C(=O)c2cc3ncccn3n2)C1` (stereo not shown) gave a fold enrichment of 1.08 (DDB1- and CUL4-associated factor 7 (Homo sapiens, UniProt P61962); binding, affinity selection mass spectrometry; reference: other proteins in batch).
With `O=[N+]([O-])c1cc(C(F)(F)F)ccc1NCc1ccsc1` the TΔS was 1.44 ± 0.15 kcal/mol (Endothelial PAS domain-containing protein 1, PAS-B domain (EPAS1, Homo sapiens, UniProt Q99814); binding, ITC, reverse mode).
The V1/2 of `CN(C)C(=O)C(CCN1CCC(O)(c2ccc(Cl)cc2)CC1)(c1ccccc1)c1ccccc1` is reported as 8.36 mV (Calcium-activated potassium channel subunit alpha-1, with LRRC26 γ1 subunit (KCNMA1, Homo sapiens, UniProt Q12791); ion current, inside-out patch, fit of G-V curve; BKα/γ1 channel; 1 µM, together with: nominally 0 Ca2+).
`Cn1nc2c3ccccc3n(Cc3ccccc3)cc-2c1=O` — result for “maximal ACh response”: 48% (CHRM1 (Homo sapiens, UniProt P11229); calcium mobilization, positive allosteric modulator; CHO-K1 cells; 30 µM, together with: submaximal acetylcholine).
Under “target engagement efficiency”, `CCOC(=O)C(C)c1n[nH]c2nc(N)[nH]c(=O)c2c1=O` (stereo not shown) is recorded as 13.4% (folP (Bacteria, UniProt P0AC13); CETSA HiBiT; Escherichia coli, whole cells; concentration not given; reference: whole cell over lysate ΔTm).
Under “normalised MST signal”, `NCCCS(=O)(=O)O` is recorded as -0.0762 (SLC6A6 (Homo sapiens, UniProt P31641, Y138A); binding, microscale thermophoresis; 122 nM, room temperature, together with: 50 nM labelled protein; higher = more binding).
Under DC50, `CN1C(=O)CCC(N2C(=O)c3cccc(N)c3C2=O)C1=O` (stereo not shown) is recorded as “inactive” (Sal-like protein 4 (SALL4, Homo sapiens, UniProt Q9UJQ4); degrader, immunofluorescence; C33).
`Cc1cc2nc3[nH]c(=O)[nH]c(=O)c3nc2cc1C` has a Kd of 0.17 µM (T2, riboswitch RNA yjdF aptamer (Bacillus subtilis); fluorescence titration; together with: 380 nM lumichrome).
The fold change of `O=C1C[C@@H](c2ccccc2)Oc2cc(O)cc(O)c21` is reported as 0.767 (Aryl hydrocarbon receptor; reporter gene, agonist, luciferase reporter; ZF-4; 1.524 µM; reference: vehicle control).
For `Cc1ccc(N(C)C(=O)/C=C/c2ccco2)cc1`, potentiation EC50 read “inactive” (Nicotinic acetylcholine receptor alpha9/alpha10 (Rattus norvegicus, UniProt P43144+Q9JLB5); positive allosteric modulator; rat α9α10 expressing cells; together with: ACh 100 µM).
With `C[C@H]1CCN(c2nccc(-c3cnn4ncccc34)n2)C1` the remaining binding was 71% (ABL1 (Homo sapiens, UniProt P00519, F317L); 1 µM; reference: control).
`O=c1nc(SCc2ccc(C(F)(F)F)cc2)nc(SCc2csc3ccc(Cl)cc23)[nH]1` gave a decatenated DNA of 0% (TOP2A (Homo sapiens, UniProt P11388); decatenation; 1.95 µM, replicate 1).
`CC1=C(/C=C/C(C)=C/C=C/C(C)=C/C=C/C=C(C)/C=C/C=C(C)/C=C/C2=C(C)CCCC2(C)C)C(C)(C)CCC1` — result for “Stern-Volmer quenching constant”: 12700 ± 1800 L/mol (Beta-lactoglobulin (LGB, Bos taurus, UniProt P02754); fluorescence quenching; 298 K).
`CC[C@H](C)[C@H](NC(=O)[C@H](CCCNC(=N)N)NC(=O)[C@H](Cc1c[nH]cn1)NC(=O)[C@H](CCCNC(=N)N)NC(=O)[C@H](CC(=O)O)NC(=O)[C@H](CC(=O)O)NC(=O)[C@@H](NC(=O)[C@H](CC(=O)O)NC(=O)[C@@H]1CCCN1C(=O)[C@@H](N)CC(C)C)[C@@H](C)O)C(=O)N[C@@H](CCC(=O)O)C(=O)N[C@@H](CCC(=O)O)C(=O)N[C@@H](CCCCN)C(=O)N[C@@H](CCCNC(=N)N)C(=O)N[C@@H](CCCCN)C(=O)N[C@@H](CCCNC(=N)N)C(=O)N[C@H](C(=O)N[C@@H](Cc1ccc(O)cc1)C(=O)N[C@@H](CCC(=O)O)C(=O)N[C@H](C(=O)N[C@@H](Cc1ccccc1)C(=O)N[C@@H](CCCCN)C(=O)N[C@@H](CO)C(=O)N[C@H](C(=O)N[C@@H](CCSC)C(=O)N[C@@H](CCCCN)C(=O)N[C@@H](CCCCN)C(=O)N[C@@H](CO)C(=O)N1CCC[C@H]1C(=O)N[C@@H](Cc1ccccc1)C(=O)N[C@@H](CC(N)=O)C(=O)NCC(=O)N1CCC[C@H]1C(=O)O)[C@@H](C)CC)[C@@H](C)O)[C@@H](C)O` gave a -TΔS of -4.4 ± 0.4 kcal/mol (NF-kappa-B inhibitor alpha (Homo sapiens, UniProt P25963); binding, ITC; 293 K, 150 mM NaCl).
The activation of `CCN1CCN(c2cc(N3CCN(CC)CC3)nc(NCCNc3ccnc4cc(Cl)ccc34)n2)CC1` is reported as 1.61 fold (NR1H3 (Homo sapiens, UniProt Q13133); reporter gene, Gal4 hybrid reporter; 20 µM; reference: vehicle).
